Assay results pooled from the literature.
A part holds a random share of what one study measured.

Study 1
Target: Ras GTPase-activating protein-binding protein 1, full length (G3BP1, Homo sapiens, UniProt Q13283)
Chain of UniProt Q13283 (whole entry, looked up): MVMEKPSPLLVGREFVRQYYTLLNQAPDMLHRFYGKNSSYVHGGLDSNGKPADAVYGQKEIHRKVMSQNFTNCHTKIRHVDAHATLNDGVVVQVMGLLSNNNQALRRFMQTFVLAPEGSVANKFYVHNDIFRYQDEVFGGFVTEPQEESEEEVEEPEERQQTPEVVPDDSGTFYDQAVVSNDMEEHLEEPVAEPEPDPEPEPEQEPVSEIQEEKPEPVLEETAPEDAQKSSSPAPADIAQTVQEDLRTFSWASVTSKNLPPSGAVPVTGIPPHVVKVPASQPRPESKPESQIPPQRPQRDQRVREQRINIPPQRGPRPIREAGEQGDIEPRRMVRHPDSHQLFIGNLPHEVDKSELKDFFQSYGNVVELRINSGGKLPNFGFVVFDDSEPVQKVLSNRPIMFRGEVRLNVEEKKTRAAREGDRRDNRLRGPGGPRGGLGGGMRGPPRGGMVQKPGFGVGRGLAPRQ
Method: RNA Bind-n-Seq
Form: RNA
Medium: in vitro
Concentration: 200 nM
Setting: whole 134-nt RNA, ends assumed
With: 150 mM LiCl
Baseline: input library
Direction: higher = stronger binding
Library: 7-deaza-guanosine replaces G
All sequences stand within: GGGAGUUCUACAGUCCGACGAUC … UGGAAUUCUCGGGUGUCAAGG
Oligonucleotide | log2 enrichment
CCUCAAGUCCUGUGCUACACAUCGUAUGUACCGAAUCGGGGCGGCGGGGCGGAAAGUAUUAUGUUACGCCGUUCGGAUCUGCACUUCCAG | -0.0353
UGGGAGGUGGAUUUUGUUUAUUUUUUUAGCUCAUCUCCAGGGGUGGGAAUUUUUUUUUAAUAUGUGUCAUGAAUAAAGUUGUUUUUGAAA | -0.341
UCCUGUGCUACACAUCGUAUGUACCGAAUCGGGGAAAAAAAGGGGUUUUUGGGGUGGGGAAAGUAUUAUGUUACGCCGUUCGGAUCUGCA | 0.221
AGUCCUGUGCUACACAUCGUAUGUACCGAAUCGGGGAAAGGGGAGGGGAAAAAGGGGAAAGUAUUAUGUUACGCCGUUCGGAUCUGCACU | 0.499
UGGGAGGUGGAUUUUGUUUAUUUUUUUAGCUCAUUUCCAGGGGUGGGAAUUUUUUUUCAAUAUGUGUCAUGAAUAAAGUUGUUUUUGAAA | -0.108
CAAGUCCUGUGCUACACAUCGUAUGUACCGAAUCGGGGAAAGGGAAAGGGAAAGGGAAAGUAUUAUGUUACGCCGUUCGGAUCUGCACUU | -0.6
GUCCUGUGCUACACAUCGUAUGUACCGAAUCGGGGCCCCCGGCCCCCGGGGCCCCCGGGAAAGUAUUAUGUUACGCCGUUCGGAUCUGCA | -2.25
UGGGAGGUGGAUUGUGUUUAUUUUUUUAGCUCAUUUCCAGGGGUGGGAAUUUUUUUUUAAUAUGUGUCAUGAAUAAAGUUGUUUUUGAAA | 0.56

Study 2
Target: Interferon regulatory factor 5, full length, phosphomimetic (IRF5, Homo sapiens, UniProt Q13568-2, residues 1-514, S451D/S453D/S456D/S462D)
Method: protein-binding microarray
Form: double-stranded DNA, one strand shown
Medium: in vitro
Concentration: 940 nM top
Setting: 60-bp whole probe
With: salmon DNA 0.4 mg/ml
Baseline: random background probes
Direction: higher = stronger binding
All sequences stand within: GCCTAGCAC … GTCTTGATTCGCTTGACGCTGCTG
Oligonucleotide | fitted relative affinity [z-score]
GACGGACTGGCGTTTCGGGACGTGCTA | 0.258
TTACATTCCAGTTTCGATTAGTGCTAG | 9.23
TCACTGCTCCTTCTGACACTGTGCTAG | 0.373
CGAGTTTCCATTTTCTGAATGTGCTAG | 2.66
TCAGATATCGGGTATCGATTAGTGCTA | 3.21
GGCGGTATCGGGTTTCGGGACGTGCTA | 5.8
TTAGATTTCAGTTTCGATTCGTGCTAG | 9.03
CCCCTACTGTATTTGGCCAGGTGCTAG | 0.216

Study 3
Cell line: HEK-293T
Observed: pseudovirus infection
Method: FDA-approved drug library screen
Organism: VSV pseudotyped with SARS-CoV-2 spike
Concentration: 10 µM
Time: 16 h
Baseline: vehicle-treated
Structure (SMILES) | GFP-positive cells
C[C@H]1C[C@H]2[C@@H]3CCC4=CC(=O)C=C[C@]4(C)[C@@]3(F)[C@@H](O)C[C@]2(C)[C@@]1(O)C(=O)CO | 90.7%
NC(=O)c1cnccn1 | 86.7%
O=c1[nH]c(=O)n([C@H]2C[C@H](O)[C@@H](CO)O2)cc1C(F)(F)F | 76.9%
N[C@@H](Cc1ccc(N(CCCl)CCCl)cc1)C(=O)O | 77.5%
CN1CCC[C@@H]1Cc1c[nH]c2ccc(CCS(=O)(=O)c3ccccc3)cc12 | 103%
CCOc1cc(CC(=O)N[C@@H](CC(C)C)c2ccccc2N2CCCCC2)ccc1C(=O)O | 65.8%

Study 4
Organism: SARS-CoV-2
Observed: cytopathic effect
Cell line: Vero E6
Concentration: 10 µM
Structure (SMILES) | inhibition [%]
CN(C)CCNc1nc2cc(O)ccc2c2c1C(=O)c1ccccc1-2 | -10.3
Nc1nc(-c2ccc(Cl)c(Cl)c2)c(-c2ccncc2)s1 | -0.9
CCN(CC)C(=S)S | -2.5
CCOC(=S)SSC(=S)OCC | 6.1

Study 5
Target: Replicase polyprotein 1ab, nsp13 helicase (rep, Severe acute respiratory syndrome coronavirus 2, UniProt P0DTD1)
Mode: inhibitor
Concentration: 20 µM
Structure (SMILES) | inhibition [%]
CCCCCCCCCCCCCCCCCCOP(=O)([O-])OC1CC[N+](C)(C)CC1 | 11.5
CCn1c(-c2nonc2N)nc2cnc(Oc3cccc(NC(=O)c4ccc(OCCN5CCOCC5)cc4)c3)cc21 | 6.57
Cc1sc2c(c1C)C(c1ccc(Cl)cc1)=N[C@@H](CC(=O)Nc1ccc(O)cc1)c1nnc(C)n1-2 | 0.89
CNCC[C@@H](Oc1ccccc1C)c1ccccc1 | 2.95
CCCCN(CC)c1c([N+](=O)[O-])cc(C(F)(F)F)cc1[N+](=O)[O-] | 5.54
CC(C)(O)CC[C@@H](O)[C@](C)(O)[C@H]1CC[C@@]2(O)C3=CC(=O)[C@@H]4C[C@@H](O)[C@@H](O)C[C@]4(C)[C@H]3CC[C@]12C | -2.3
COc1ccc(Cn2ccc3ccc(C(=O)NO)cc32)cc1 | 7.6
Nc1ccn([C@@H]2O[C@H](CO)[C@@H](O)[C@@H]2O)c(=O)n1 | -3.02
Cc1csc2c(N[C@@H](C)CN3CCN(S(=O)(=O)c4ccc(Cl)c(Cl)c4)CC3)ncnc12 | 52.6
C[C@@H]([C@H](C)O)[C@H](N)C(=O)O | 91.2
O=C(Cc1ccccc1)Nc1nc2ccc(Cl)cc2c2nc(-c3ccco3)nn12 | 4.53
Cc1cc2c(cc1S(N)(=O)=O)S(=O)(=O)CCC2 | 2.75
CC(SC(=O)c1cccs1)C(=O)NCC(=O)O (stereo not drawn) | -1.71
CC#CC(=O)N1CC[C@@H](n2c(=O)n(-c3ccc(Oc4ccccc4)cc3)c3c(N)ncnc32)C1 | 14.4
CC[C@]1(O)C[C@H]2CN(CCc3c([nH]c4ccccc34)[C@@](C(=O)OC)(c3cc4c(cc3OC)N(C=O)[C@H]3[C@@](O)(C(=O)OC)[C@H](OC(C)=O)[C@]5(CC)C=CCN6CC[C@]43[C@@H]65)C2)C1 | 5.37
CCOC(=O)c1ccc(N2NC(=O)/C(=C/c3ccc([N+](=O)[O-])o3)C2=O)cc1 | 92.8
CC(ONC(=O)c1cc(C(F)(F)F)cc(C(F)(F)F)c1)C(=O)Nc1ccc(Cl)cc1 (stereo not drawn) | -2.83
Nc1cccc(CNC(=O)c2ccc(Oc3ccc(OCc4cccc(F)c4)cc3)nc2)c1 | 3.48
COc1cc(-c2cc(-c3cccc(O)c3)cnc2N)cc(OC)c1OC | 30.6
Nc1nc(NCCNc2ncc(-n3ccnc3)c(-c3ccc(Cl)cc3Cl)n2)ccc1[N+](=O)[O-] | -1.29
CCc1cc(/C(C)=N/OCc2ccc(C3CCCCC3)c(C(F)(F)F)c2)ccc1CN1CC(C(=O)O)C1 | 3.67
CCCc1cc(C)[nH]c(=O)c1CNC(=O)c1cc(-c2ccc(N3CCN(C(C)C)CC3)nc2)cc2c1cnn2C(C)C | 5.01
Nc1ncnc2c1c(-c1cccc(OCc3ccccc3)c1)cn2[C@H]1C[C@@H](CN2CCC2)C1 | 0.82
N[C@@H](C(=O)O)[C@@H](OCc1ccccc1)C(=O)O | 2.97
CCC(C)N(C)C(=O)c1cc2ccccc2c(-c2ccccc2Cl)n1 (stereo not drawn) | 4.94
